Assay results collected from several papers.
Parts stem from different laboratories: compare values within a part only. Substitutions count along the parent as printed.

Study 1
Target: POU, POU domain (Salpingoeca helianthica)
Method: Spec-seq
Form: double-stranded DNA, one strand shown
Sample: in vitro
Concentration: not given
Notes: whole probe, mean of replicates
Relative to: not given
Reading: lower = stronger binding
Quantity: relative binding energy
All sequences stand within: GAGTCGTCTCGTCAGCAC … CCGTAGAGCACTCAGGTC
Residues (chain): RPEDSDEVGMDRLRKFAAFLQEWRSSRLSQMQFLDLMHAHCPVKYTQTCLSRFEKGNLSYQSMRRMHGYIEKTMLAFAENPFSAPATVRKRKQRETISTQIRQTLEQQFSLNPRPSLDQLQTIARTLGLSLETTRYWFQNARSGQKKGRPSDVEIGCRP
AGCGTAAT: 0.682 ln ratio
ATTTCTAT: 0.976 ln ratio
ATGCCAGC: 1.38 ln ratio
ATGCGCAC: 1.55 ln ratio
TGCGTAAT: 0.616 ln ratio
CCGGTAAT: 0.548 ln ratio
AAGGTAAT: 0.8 ln ratio
ATGTCGAT: 1.29 ln ratio

Study 2
Target: CCNE1, cyclin fold, Cln2 fusion (human)
Method: yeast growth competition, sequencing
Sample: yeast
Notes: strong parent motif
Relative to: not given
Reading: higher = stronger binding
Quantity: normalised enrichment score
Parent: BRCA2 docking peptide (human); PSIKRNLLNEFDR
PSIKRNLLNCFDR [E10C]: 0.763
PSIKRNILNEFDR [L7I]: 1.28
PSIKRNCLNEFDR [L7C]: -0.147
PSIKRNLLNGFDR [E10G]: 0.75
PSIMRNLLNEFDR [K4M]: 0.888
PSIKRNLLNWFDR [E10W]: 1
PSIKRNLLNSFDR [E10S]: 0.607

Study 3
Target: ABI1, truncated, D143A, DHFR fusion (Arabidopsis thaliana)
Method: DHFR PCA, deep sequencing
Sample: yeast
Notes: methotrexate growth selection, single substitutions
With: (+)-ABA 200 µM
Relative to: wild-type fitted maximum
Reading: higher = stronger binding
Quantity: relative binding score
Parent: PYL1, truncated, DHFR fusion (Arabidopsis thaliana); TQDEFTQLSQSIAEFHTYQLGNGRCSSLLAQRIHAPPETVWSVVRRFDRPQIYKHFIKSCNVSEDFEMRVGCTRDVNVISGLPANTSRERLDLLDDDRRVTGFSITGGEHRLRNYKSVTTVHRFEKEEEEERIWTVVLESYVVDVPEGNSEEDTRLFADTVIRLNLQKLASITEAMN
R113Y: 93.5%
L82G: 52%
F15S: 73.3%
R88W: 81.1%
V62E: 25.7%
S117M: 9.08%

Other studies, line by line
PhoQ, residues 284 288 289 292 302 303 ASTSDA
fold induction (PhoP, residues 12 14 15 18 19 NIMAP (Escherichia coli, UniProt P23836); Sort-seq, refers to: YFP reporter; E. coli; PhoQ-PhoP variant library, with: 10 µM Mg2+; relative to: high Mg2+ state, higher = stronger signaling): 0.594
